Results of several laboratories.
Each numbered part is a random draw from the data of one study; scales do not carry over between parts. Positions count from the first letter of the parent shown.

Study 1 — technique: RNA Bind-n-Seq; form: RNA; sample: in vitro; tested at: 365 nM; reference: no-protein control; reading: higher = stronger binding
Target: RNA binding protein fox-1 homolog 2, RRM domain, GST-SBP tag (RBFOX2, Homo sapiens, UniProt O43251-10, residues 100-194)
Notes: natural RNA segment, single round, ends assumed
Construct (chain): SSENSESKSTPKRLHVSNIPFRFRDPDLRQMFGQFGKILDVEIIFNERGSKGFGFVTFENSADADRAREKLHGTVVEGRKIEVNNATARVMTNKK
Sequence	RBNS enrichment (R)
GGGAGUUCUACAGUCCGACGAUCAAAGCUAUUCUAAAUGGGUUUUUAUUUGUAAGACAUUAUUUACUAGGAAGCUGGUGAUAUUAAUGCUUACUGUUCUAAUCCAGUGGCCAAGGUAUUAAGAAUUUGCAAGUUGGAAUUCUCGGGUGCCAA	0.612
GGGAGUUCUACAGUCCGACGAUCGGGCCUCGUGUCUGCCUCACUCCCGGGCCCCAGUCCUGGGUGAAGUUGGCAAAGCACUGGGUAUCUUGUGCGGCUGCCGUGGAAGGCGGCCCUGCUCGAUGCAGGGUCUGUGGAAUUCUCGGGUGCCAA	0.247
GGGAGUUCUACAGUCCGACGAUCGUACAAUAUCUAAAAAGAAAGUGACAUGAAGGAAGCAAUCUACAACUUCCUUCCGCUUAGCGAGCAUGCAUGUGUGUACGUGCACGUGUGUACAUGUCUGCAUGUGUGGGUGGAAUUCUCGGGUGCCAA	5.09
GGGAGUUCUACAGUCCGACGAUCCCGGGACGCCUAGGAGCCUGGGGGACACUGGAAGAGGGGCCUGUCCAUCCUCACCAUCGCCUUCCCUUUUCUCCUGCACCCCUGUAGUCUACCUCUACAGUCUCCAUGACUGGAAUUCUCGGGUGCCAA	0.352
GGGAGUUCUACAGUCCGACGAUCGGACUACCUGAAACCCCUAACUGGGGCGACUGAGCCUGUAGUGUGGUCAGUUCAAAGUUGCAUUUGGGAUUCUAUGUCUUCCAAAUUGAACCGUCUGUAAUCAGUACAGCUGGAAUUCUCGGGUGCCAA	0.211
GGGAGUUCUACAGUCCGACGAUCUAAUUGCUAUUUACUAUUUAAAAAGUUUUACUGAAAUCAGUCCAUAACAUUAAGAUGAGCCCUAAUAUGUAAGAUUUUCCUCUGGAAUGGAUGUGAGAAAUGUAAAUUUUUGGAAUUCUCGGGUGCCAA	0.761
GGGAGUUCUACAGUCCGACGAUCAAGGUGGCCAUCUGGGGUGAGUCGAUACUGCCCUCUGCUGGUUGUUUCUAGUUCAAGCCCACAGCCAGCAACAAGCAACAAAGUGUCUUAGAAUAGGACUGGUUUUGUUUUGGAAUUCUCGGGUGCCAA	0.586
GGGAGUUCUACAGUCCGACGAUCGAGCCAGCAGGCCCCACUGUAUUAUGUAUAUAUUUUUCAAGGUCUGUUUUUCUAACUGAAAAGCUAAGGGCUUGAUUCCUAGCCCCGUUCUGUGGGGCACUGGGUGAUACUGGAAUUCUCGGGUGCCAA	0.375
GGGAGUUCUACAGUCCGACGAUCAGCUAUUUUAAAGAUGUUUUAAACAGUGGAAGAAUUAAGUCCACCAAAAGUCUUCCAUGAAAUGUAGCAGAGUUUCUGUCUGCCCUGCAUUACCUGCCAGCGAGUCAAGGUGGAAUUCUCGGGUGCCAA	0.388
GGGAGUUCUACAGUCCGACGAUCCAGGGUUUAGUCCUGGGGCUGGCACUCGUUGUGACUUACACAGAGCAAAAUUGUGCUAAAGGCUUUUCUACUCUGAGAUCUCAAUGCGAAAUGAAAACUCAGGCAGUUUAUGGAAUUCUCGGGUGCCAA	0.586
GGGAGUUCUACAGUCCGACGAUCAAAUAUGACUGGCAACCUGAAUUUGAGUUGGGAUUCUUUGUGUAUUUUUCCCCCUUGAGGUUAUUGUUUCUUCCUAAUUUAUAUUUCAGAUACAUAGUGUAGAACAGGAAUGGAAUUCUCGGGUGCCAA	1.06
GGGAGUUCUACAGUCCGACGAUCGAUCCCAGUGCCUAGCACUGGGUAAGCUACCCCAGACAACUAGCCUUCCUUAUACCCAAACGCUGGUCGGUGGAAAUAGAAAGUCACCCCUCCCCCAUCGCCUCUUUCUCUGGAAUUCUCGGGUGCCAA	0.508

Study 2 — technique: protein-binding microarray; form: double-stranded DNA, one strand shown; sample: in vitro; tested at: 250 nM; notes: 60-bp whole probe; added: salmon DNA 0.4 mg/ml; reference: random background probes; reading: higher = stronger binding; all sequences stand within: GCCTAGCAC … GTCTTGATTCGCTTGACGCTGCTG
Target: Interferon regulatory factor 5, full length, phosphomimetic (IRF5, Homo sapiens, UniProt Q13568-2, residues 1-514, K96S/S451D/S453D/S456D/S462D)
Sequence	log fluorescence [z-score]
TCAGATATTAAACTGATACTGTGCTAG	0.646
GATGAATAAAGCGTTGCTGCGTGCTAG	-0.225
TCATTATTTACTCTCTAACTGTGCTAG	0.865
GACGGTATCGATATCGGGACGTGCTAG	6.67
TTAGGTATCGGTAACGGTTAGTGCTAG	6.22
GTAGGTATCGACTATCGGTTAGTGCTA	7.98
TTAGGGATCCTTTTCCTTTAGTGCTAG	0.0183
GCCATTGTGGGTCTTGCAGAGTGCTAG	-0.66
GACGGTATCGGATATCGGGACGTGCTA	2.13
AAATGTTTTGTTTTTCATTAGTGCTAG	2.14
GACGGTTTCGATTTCGGGACGTGCTAG	9.15
GACGATATCGGGACTGGAGATGTGCTA	0.754
GACGGTTTCGACACTGGGGGCGTGCTA	5.45
TTACGACTGGACTTTCGGTTAGTGCTA	9.91
TTAGAACTGGGGACTGTATTAGTGCTA	-0.292
TTAGGACTGGGACTGCGTTAGTGCTAG	-0.575
TTAGGTATCGACACTGGGTAAGTGCTA	2.55
GACGGTCTCCTTCTCCCGACGTGCTAG	-0.174
TTAGGTTTCGACCCTGGGTTAGTGCTA	4.92
GACTGTTTCGACTTTCGGGACGTGCTA	8.29
TTAGATTTCGGGTATCGATGAGTGCTA	6.77
TTCGGTTTCCTTCTCCTTTAGTGCTAG	2.26
GACGGACTGGACAATCGGGACGTGCTA	-0.428
TATGTTCCCTATTTAAGGCTGTGCTAG	0.347

Study 3 — technique: RNA Bind-n-Seq; form: RNA; sample: in vitro; tested at: 200 nM; notes: whole 134-nt RNA, ends assumed; added: 150 mM KCl; reference: input library; reading: higher = stronger binding
Target: Fragile X messenger ribonucleoprotein 1, C-terminal low-complexity region (Fmr1, Mus musculus, UniProt P35922)
Sequence	log2 enrichment
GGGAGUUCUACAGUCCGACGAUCGUCCUGUGCUACACAUCGUAUGUACCGAAUCGGGAAAAAGGAAAAAGGGGAAAAAGGGGAAAGUAUUAUGUUACGCCGUUCGGAUCUGCAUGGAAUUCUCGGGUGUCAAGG	-0.0419
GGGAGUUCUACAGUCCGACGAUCCUCAAGUCCUGUGCUACACAUCGUAUGUACCGAAUCGGAGGUUUGGAAAAAGGAAAGUAUUAUGUUACGCCGUUCGGAUCUGCACUUCCAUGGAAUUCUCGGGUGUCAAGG	-0.482
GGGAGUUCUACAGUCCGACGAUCUUCCAUUGUGAACGUGCCUGGUGAGUCUACUCUUCGCCGAGAUUUCCUGAGACUGCAGCAGGAGAACAAGGAACGUUCCGAGGCUCUUCGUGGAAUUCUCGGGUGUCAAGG	-1.83
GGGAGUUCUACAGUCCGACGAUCUCAAGUCCUGUGCUACACAUCGUAUGUACCGAAUCGGUUUGGUUUUUUUGGAGGAAAGUAUUAUGUUACGCCGUUCGGAUCUGCACUUCCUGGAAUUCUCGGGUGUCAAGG	-0.237
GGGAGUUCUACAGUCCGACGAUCUGGGAGGUGGAUUUUGUUUAUUUUUUUAGCUCAUUUCCAGGGGUGGGAAUUUUUUUUUAGUAUGUGUCAUGAAUAAAGUUGUUUUUGAAAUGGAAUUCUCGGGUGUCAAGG	0.587
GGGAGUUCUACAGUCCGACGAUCUGGCCCUGGUGGCAUGCGGGGAGGAAGAGGUGGCCUCAUGGAUCGUGGUGGUCCCGGUGGAAUGUUCAGAGCUGGCCGUGGUGGAGACAGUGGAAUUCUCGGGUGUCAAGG	0.00731
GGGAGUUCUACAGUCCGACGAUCUAACUUUAGAGGAGGAUCUGAUGGAUAUGGCAGUGGACGUGCAUUUGGGGAUGGCUAUAAUGGGUAUGGAGGAGGACCUGGAGGUGGCAAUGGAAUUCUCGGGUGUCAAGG	0.0835
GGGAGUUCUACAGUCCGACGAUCUUUAGCCUGUGGAAUGAUAGCAGUAGGGUCCUGCAAUGGAGAUGUAACUUCCACUAUCCUUCAGACCAUCAUGGAGAAGUCAGAGACUGAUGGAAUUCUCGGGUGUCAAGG	-0.974
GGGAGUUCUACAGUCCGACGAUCCAAGUCCUGUGCUACACAUCGUAUGUACCGAAUCGGGGCCCGGGCCCGGCCCGGGAAAGUAUUAUGUUACGCCGUUCGGAUCUGCACUUCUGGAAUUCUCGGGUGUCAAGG	-0.618
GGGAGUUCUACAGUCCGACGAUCUGGCCCUGGUGGCAUGCGGGGAGGAAGAGGUGGCCUCAUGGAUCGUGGUGGUCCCGGUGGAAUGUUCAGAGGUGGCCGUUGUGGAGACAGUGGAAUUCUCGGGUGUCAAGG	-0.0981
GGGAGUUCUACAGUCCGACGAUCCUGUGCUACACAUCGUAUGUACCGAAUCGGGGAAAAAAAGGGGUUUUUUUGGGGUUUGGGGAAAGUAUUAUGUUACGCCGUUCGGAUCUGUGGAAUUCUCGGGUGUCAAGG	-0.259
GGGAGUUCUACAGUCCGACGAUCAGUCCUGUGCUACACAUCGUAUGUACCGAAUCGGGGAAAGGGGUUUGGGGAAAGGGGAAAGUAUUAUGUUACGCCGUUCGGAUCUGCACUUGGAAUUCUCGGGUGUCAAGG	0.58
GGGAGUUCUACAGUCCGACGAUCAAGUCCUGUGCUACACAUCGUAUGUACCGAAUCGGGUUUGGGUUUGGGAAAAAGGGAAAGUAUUAUGUUACGCCGUUCGGAUCUGCACUUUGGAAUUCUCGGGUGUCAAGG	0.473
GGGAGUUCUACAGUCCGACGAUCAGUCCUGUGCUACACAUCGUAUGUACCGAAUCAAACCCAAAUUUAAACCCCCCCAAAAAAGUAUUAUGUUACGCCGUUCGGAUCUGCACUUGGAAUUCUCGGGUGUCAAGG	-0.175

Study 4 — target: CCNA1, cyclin fold, Cln2 fusion (human); technique: yeast growth competition, sequencing; sample: yeast; notes: weak parent motif; reference: not given; reading: higher = stronger binding
Parent: RB1 docking peptide (human); PKPLKKLRFDIEG
Change	normalised enrichment score
G13L	0.349
F9Q	0.267
L4T	0.00754
I11K	0.201
L4P	-0.176
P3T	0.0797
P3N	0.106
L4G	0.237
G13E	0.452
F9P	0.0361
E12D	0.151
D10I	-0.54
D10K	0.341
D10T	-0.153
F9Y	-0.0724
K6T	0.251
L7Q	0.126
K6H	0.417
R8Q	0.187
K5Y	0.386
I11F	0.143
K6Y	-0.23
P1M	-0.091

Study 5 — technique: protein binding microarray; form: double-stranded DNA, one strand shown; sample: in vitro; tested at: not given; reference: not given; reading: higher = stronger binding
Target: Histone acetyltransferase KAT6A, both winged helices, GST fusion (KAT6A, Homo sapiens, UniProt Q92794, residues 1-181)
Notes: 8-mer, flanks averaged, mean of 2 arrays, mostly near background
Residues (chain): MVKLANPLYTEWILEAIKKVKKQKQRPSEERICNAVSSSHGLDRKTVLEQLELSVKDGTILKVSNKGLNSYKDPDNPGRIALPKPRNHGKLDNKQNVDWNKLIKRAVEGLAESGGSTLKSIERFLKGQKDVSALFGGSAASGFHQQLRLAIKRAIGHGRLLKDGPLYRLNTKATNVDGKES
Sequence	E-score
CTGAGACC	-0.0332
AACCGGAG	0.143
ATCCATAA	-0.118
CATCGAGG	-0.13
CGCCCCAA	0.0964
CAGGAACG	0.144
CACAGTAC	-0.0343
CCCTACTA	-0.0043
ACTTGGGG	-0.0914
GTAAGAGA	-0.0957
ACACATCT	-0.189
CTCAAGCC	0.0377
GGACCTCA	-0.061
CATGCCCA	-0.16
TACCTCTA	-0.141
GCCGCAAA	0.236
CATGATGA	-0.132
GATTCCGC	0.165
CTATTCAC	0.0637
CTTTACTC	-0.0662
GTTAAATA	-0.0101
GGTACGGA	0.213
ACTAAGCT	-0.245
CTACTGAC	-0.0202
AACACTGG	-0.0726

Repeated from above (study 2):
Sequence	log fluorescence [z-score]
TTAGGTATCGGTAACGGTTAGTGCTAG	6.22
GTAGGTATCGACTATCGGTTAGTGCTA	7.98
TTAGGGATCCTTTTCCTTTAGTGCTAG	0.0183
GCCATTGTGGGTCTTGCAGAGTGCTAG	-0.66
GACGGTATCGGATATCGGGACGTGCTA	2.13
AAATGTTTTGTTTTTCATTAGTGCTAG	2.14
GACGGTTTCGATTTCGGGACGTGCTAG	9.15
GACGATATCGGGACTGGAGATGTGCTA	0.754
GACGGTTTCGACACTGGGGGCGTGCTA	5.45
TTACGACTGGACTTTCGGTTAGTGCTA	9.91
TTAGAACTGGGGACTGTATTAGTGCTA	-0.292
TTAGGACTGGGACTGCGTTAGTGCTAG	-0.575
